Assay results collected from several papers.
Each numbered part is a random draw from the data of one study; scales do not carry over between parts. Changes are numbered by the printed parent chain.

Study 1 — method: RNA Bind-n-Seq; form: RNA; sample: in vitro; tested at: 1 µM; notes: whole 134-nt RNA, ends assumed; together with: 150 mM KCl; reference: input library; reading: higher = stronger binding
Target: Ras GTPase-activating protein-binding protein 1, RRM domain (G3BP1, Homo sapiens, UniProt Q13283)
UniProt Q13283, sequence (whole entry, looked up): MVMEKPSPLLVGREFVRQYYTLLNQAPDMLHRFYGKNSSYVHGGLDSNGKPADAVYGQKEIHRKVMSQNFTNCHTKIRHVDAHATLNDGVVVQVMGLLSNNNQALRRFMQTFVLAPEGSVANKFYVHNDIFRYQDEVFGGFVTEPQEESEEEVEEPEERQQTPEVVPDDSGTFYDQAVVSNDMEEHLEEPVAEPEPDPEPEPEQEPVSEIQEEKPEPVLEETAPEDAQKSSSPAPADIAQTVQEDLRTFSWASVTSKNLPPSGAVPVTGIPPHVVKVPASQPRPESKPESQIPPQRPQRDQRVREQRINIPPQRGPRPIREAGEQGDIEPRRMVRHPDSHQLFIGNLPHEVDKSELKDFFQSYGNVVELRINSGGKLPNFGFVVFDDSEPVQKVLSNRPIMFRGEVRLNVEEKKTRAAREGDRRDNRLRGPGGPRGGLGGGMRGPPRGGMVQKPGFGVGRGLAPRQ
Constant ends, left off below: GGGAGUUCUACAGUCCGACGAUC … UGGAAUUCUCGGGUGUCAAGG
`AAGUCCUGUGCUACACAUCGUAUGUACCGAAUCGGGGCCCCGGGCCCCGGCCCCGGGAAAGUAUUAUGUUACGCCGUUCGGAUCUGCACU` has a log2 enrichment of -0.562.
With `UCCUGUGCUACACAUCGUAUGUACCGAAUCGGGGAGGGGUUUUUUUGGGGUUUUUGGGGAAAGUAUUAUGUUACGCCGUUCGGAUCUGCA` the log2 enrichment was 0.676.
With `AGUCCUGUGCUACACAUCGUAUGUACCGAAUCGGGGUUUUGGGUUUUGGUUUUGGGGAAAGUAUUAUGUUACGCCGUUCGGAUCUGCACU` the log2 enrichment was -0.0739.
The log2 enrichment of `CAAGUCCUGUGCUACACAUCGUAUGUACCGAAUCGGAGGUUUUUGGUUUUUUUGGAAAGUAUUAUGUUACGCCGUUCGGAUCUGCACUUC` is reported as -0.276.
For `UCCUCAAGUCCUGUGCUACACAUCGUAUGUACCGAAUCGGGGUGGUGGUGGGAAAGUAUUAUGUUACGCCGUUCGGAUCUGCACUUCCAG`, the log2 enrichment was -0.0525.
`CACAGACAACACGCACCCACACAGACACAGAGGGAAGGGGUUGGGAUGGGGACAGGGUGCACAGCAGGGCGGGGUAGGACCCCAGCCAAA` gave a log2 enrichment of -0.126.
`UCCUGUGCUACACAUCGUAUGUACCGAAUCGGGGAAAAAGGGGUUUUUGGGGAAAGGGGAAAGUAUUAUGUUACGCCGUUCGGAUCUGCA` has a log2 enrichment of 0.933.
With `CACAGACAACACGCACCCACACAGACACAGAGGGAAGGGGUUGGGAUGGGGACAGGGUGCACAGCAGGGCGGGGUAGGACCCCUGCCCCU` the log2 enrichment was -0.407.
`UCCUGUGCUACACAUCGUAUGUACCGAAUCGGCCCCCCGGCCCCCCGGGGCCCCCCGGGAAAGUAUUAUGUUACGCCGUUCGGAUCUGCA` gave a log2 enrichment of -0.389.

Study 2 — method: RNA Bind-n-Seq; form: RNA; sample: in vitro; tested at: 365 nM; reference: no-protein control; reading: higher = stronger binding
Target: RNA binding protein fox-1 homolog 2, RRM domain, GST-SBP tag (RBFOX2, Homo sapiens, UniProt O43251-10, residues 100-194)
Notes: natural RNA segment, single round, ends assumed
Constant ends, left off below: GGGAGUUCUACAGUCCGACGAUC … UGGAAUUCUCGGGUGCCAA
Construct (chain): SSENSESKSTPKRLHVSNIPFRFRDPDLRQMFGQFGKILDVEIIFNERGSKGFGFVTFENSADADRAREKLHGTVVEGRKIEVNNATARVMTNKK
For `UGUGGCCUGGAGUCGAGGUCUUGGCCAGGACAUAACAAGCUGUGGUCUGGGGUAACAGCCUCUUCCCAGCACCCACCUGCCAGCCCUGCUUGCCUGGCCCUGUCCUGGAC`, “RBNS enrichment (R)” read 0.454.
Under “RBNS enrichment (R)”, `UGGAGUAUGGAGUUUACCUUUGGAGAAGUUGUAAUGGAGCAUGCCCUGUCCCACCACUCUCAGAGAGGGUGUACCUGUCAAACUGGAUGGCCUACAUAGGUACUCCCCCC` is recorded as 2.67.
`AAACCUUAACUCUUCUCUGCACAAUGGAGAUGAAUUAUUGGCAGCUGAUCAAACUCUUCAGGCAGGAUUCCUGUGGACUUUGAGAUUUCCUGUUACCUCAUCUUCUUUUU` — result for “RBNS enrichment (R)”: 0.317.
Under “RBNS enrichment (R)”, `GGCUUUGAAGGUCAUUUGCACAAGAGCACGUGACCCAGAGAUGGAGAAGUGAGGUUCAGGGAGGGUGCUUAGAGACCAGCCUGUUCUUUGAGCUGUAGAGACUCAUGCUG` is recorded as 1.21.
For `UGUCCUGGGCCUCUGUGUAGAGCAUGGAGGAAGAAGACGACAAGUUGAUAGGUGUGGUGGACAGAGGCACAGUUGGCUUCAGGGUUCCUUCCCUGUUUUCUCCCCAGAAU`, “RBNS enrichment (R)” read 0.297.
Under “RBNS enrichment (R)”, `CUGGCAGGACUCACAGGAACAAACGAGGUCCCUGUUAGGGUUCUACUCGGGGGAGGGAGGGGGCUCCAUGAAAGGUACGUCUGAAAAGUUUCUGAAGAUUUUAUUAUCAU` is recorded as 0.333.
`UAUUCCUGGCCAUGUUUGAAUGAGCCUCUUAAAAUAAACUUAGAGCCAUGCAAAUGCCAGCAGCUUAAUGGAUUUCAUGGAAUGAAAUACCGUGAUUAACUCAUAGCUAC`: “RBNS enrichment (R)” 0.296.
Under “RBNS enrichment (R)”, `UAAAGUAGUUAUUAAAAUCAAGCACUUGAUACUAAUUUGAAGUGUGUUUAAAAGUAAAUGAUUUGGGAACUGACAAUGUGUCAGAAAAUAUAUGUUCAUUUAUCAUUUUA` is recorded as 0.689.

Study 3 — target: CCNA2, cyclin fold, Cln2 fusion (human); method: yeast growth competition, sequencing; sample: yeast; notes: strong parent motif; reference: not given; reading: higher = stronger binding
Starting sequence: PPP1R3F docking peptide (human); VAPRRVLFADEAL
`AAPRRVLFADEAL [V1A]` — result for “normalised enrichment score”: 2.43.
`VAPRAVAFADEAL [R5A L7A]`: “normalised enrichment score” -0.23.
`VAPRAVLFADEAL [R5A]`: “normalised enrichment score” 0.662.
`VAPRRVLAADEAL [F8A]`: “normalised enrichment score” -0.129.
`VAPRRVLLADEAL [F8L]` — result for “normalised enrichment score”: 0.638.
`VAPRKVLFADEAL [R5K]`: “normalised enrichment score” 1.32.
`VAPRRALFADEAL [V6A]` — result for “normalised enrichment score”: 2.77.
`VAPARVLFADEAL [R4A]`: “normalised enrichment score” 0.638.

Study 4 — method: DHFR PCA, deep sequencing; sample: yeast; together with: (+)-ABA 0.11 µM; reference: wild-type fitted maximum; reading: higher = stronger binding
Target: ABI1, truncated, D143A, DHFR fusion (Arabidopsis thaliana)
Notes: methotrexate growth selection, single substitutions
Starting sequence: PYL1, truncated, DHFR fusion (Arabidopsis thaliana); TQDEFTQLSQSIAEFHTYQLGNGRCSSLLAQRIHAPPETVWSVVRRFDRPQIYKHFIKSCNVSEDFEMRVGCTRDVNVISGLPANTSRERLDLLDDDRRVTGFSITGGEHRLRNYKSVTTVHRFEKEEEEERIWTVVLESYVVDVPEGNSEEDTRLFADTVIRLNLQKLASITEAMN
Under “relative binding score”, `N165I` is recorded as 4.91%.
`G148L` — result for “relative binding score”: -3.27%.
Under “relative binding score”, `D96Q` is recorded as -1.25%.
`Q10I`: “relative binding score” 5.95%.
Under “relative binding score”, `K126C` is recorded as 57.5%.
`H110I` — result for “relative binding score”: 4.62%.
`F5D`: “relative binding score” 2.59%.
`D48V` — result for “relative binding score”: -3.08%.
`T106I`: “relative binding score” 84.2%.
`T135Y` — result for “relative binding score”: -6.46%.
`R123M`: “relative binding score” 2.81%.
`E129S`: “relative binding score” 46.7%.
Under “relative binding score”, `L94T` is recorded as -10.2%.
`A84R`: “relative binding score” 3.56%.
Under “relative binding score”, `K168T` is recorded as 16%.
`E14H` — result for “relative binding score”: 2.8%.
For `M176V`, “relative binding score” read 9.29%.

For quick reference, copied from above (study 4):
Under “relative binding score”, `L94T` is recorded as -10.2%.
`G148L` — result for “relative binding score”: -3.27%.
Under “relative binding score”, `K126C` is recorded as 57.5%.
`T106I`: “relative binding score” 84.2%.
`H110I` — result for “relative binding score”: 4.62%.
For `M176V`, “relative binding score” read 9.29%.
